# Experimental data from different studies.
# Every numbered part comes from another study and shows a few of its results, in no order. Positions count from the first letter of the parent shown.

# Set 1
# Target: PABPC1L2, full length, GST fusion (mouse, UniProt A0ABA7IW68)
# Method: RNAcompete
# Molecule type: RNA
# Matrix: in vitro
# Concentration: 20 nM
# Notes: 7-mer, probes averaged, single round
# Reference: mean of 7-mers
# Reading: higher = stronger binding
# Residues (chain): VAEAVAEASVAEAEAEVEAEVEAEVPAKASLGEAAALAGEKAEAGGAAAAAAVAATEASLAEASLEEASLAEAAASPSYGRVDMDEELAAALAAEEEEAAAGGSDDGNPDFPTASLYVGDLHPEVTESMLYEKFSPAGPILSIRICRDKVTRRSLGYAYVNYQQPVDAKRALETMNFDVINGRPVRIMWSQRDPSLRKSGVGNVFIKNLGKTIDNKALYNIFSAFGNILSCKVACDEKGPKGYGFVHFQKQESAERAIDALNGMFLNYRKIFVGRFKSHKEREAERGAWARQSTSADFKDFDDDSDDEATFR
Strand,7-mer Z-score
UCCUAUC,-0.369
GAGCCCC,-0.403
CCGCGUA,-0.209
GGAGGGG,0.318
AAGUAGA,0.528
CGUGGUG,-0.0971
UAUUUCG,-0.267
GGGAGUC,-0.0935
CAUACCC,-0.425
UAAGUCG,-0.142
CCGCACC,-0.374
GAGUACC,-0.153
ACACUCU,-0.151
GCAGUGU,0.0424
CUAGUGA,-0.238
AUGCACC,-0.0663
CAAACCC,-0.255

# Set 2
# Target: RNA binding protein fox-1 homolog 2, RRM domain, GST-SBP tag (RBFOX2, Homo sapiens, UniProt O43251-10, residues 100-194)
# Method: RNA Bind-n-Seq
# Molecule type: RNA
# Matrix: in vitro
# Concentration: 365 nM
# Notes: natural RNA segment, single round, ends assumed
# Reference: no-protein control
# Reading: higher = stronger binding
# Shared flanks, not repeated: GGGAGUUCUACAGUCCGACGAUC … UGGAAUUCUCGGGUGCCAA
# Target sequence (chain): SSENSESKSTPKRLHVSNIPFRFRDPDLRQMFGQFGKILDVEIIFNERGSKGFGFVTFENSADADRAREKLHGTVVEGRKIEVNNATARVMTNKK
Strand,RBNS enrichment (R)
AAGCCUAAGAAUCUUUAGAGAAGUAUACAUAAGUUUAGGAUAAAAUAAUGGGAUUUUCUUUUCUUUUCUCUGGUAAUAUUGACUUGUAUAUUUUAAGAAAUAACAGAAAG,0.751
CACAUUUCUAAAGAAAGAGUGAAUAGGCUGGGCAUGGUGGCUCAAGCCUCUAAUCUCAACGCUUUGGGAGGCUGAGGCAGGAGGAUCGCUUGAGGCCAGGAGUUUGAGAC,0.563
GUCCCCUUGGUCCUGCUUAUGGCUGGACCGGCCCUGCAGGAGGUGGUGGAGCCGUGAAGGAGGCCGAGCUGCAGCUCUGGCUGCUGCUUGGCCUCCUGCUCCAAGACCCU,0.242
ACUUGGUGCCAAGGCCAAGAGAGAACAGCCCCUGGUCUGCGUCUGUGUCCCCAAGAGAGAGGCUGAAGGACUUUCUCGACAUGGUCCUGGCACUUCCCAGCCUGCUUUUG,1.58
ACCCCAUCAUUUAAAAAAUGGACCUGAUAAUAUGAAGCAUCUUCCUUGUAAUUGUCUCUGACCUUUUUAUCUGAGACCGGAAUUCAGGAUAGGAGUCUAGAUAUUUACCU,0.711
AAACCUUAACUCUUCUCUGCACAAUGGAGAUGAAUUAUUGGCAGCUGAUCAAACUCUUCAGGCAGGAUUCCUGUGGACUUUGAGAUUUCCUGUUACCUCAUCUUCUUUUU,0.317
UAAGCUCCCCUUGGAGUUGGAGAGGUAUCGGGGACACUGCUGGUUAGUACGUUUUGAUUUUAAACAGGACCUUUGUGUGGUCAGAUCCCACAGCACUGCCUGUCCUUUUU,0.414
GCUGGGCACAUGCUGUGUACCACCGACUGCAGUCUGGCCCUGUUCUUAGUGGCAUCUGCCAAUGAGAUAUCACCUUCCCCCUCUCCUCUUUAAUCUCUUGUUAAAUUACC,0.68
GAUGAAGCCCACUUGAUCAUGGUGGAUAAGCUUUUUGAUGUGCUGCUGGAUUCGUUUUGCCAGUAUUUUAUCCAGUUAGAAUGGCAAUCAUUAAAAAGUCAGGAAACAAC,0.545
CAAUCUUGUAUUUUCUGACCACAUAAAGGCUUCUUCUCUUUGUAAUAAAGUAGAAAAGCUCUCCUCACUGCAGUGUUGGCUUUGAUUUGAAAUUGCGAAAUUAUUUCUUC,0.406
GCUGGGGCAGGCAACUACCCGUCCUCAAGCCCGCUGUUUCUGUCUCCCUACCAGACAGGCCUCUGGGAAUGGAGAGAGAAGCAGCUGAGUAGAACAUGAACUAGUUAGAG,0.304
CCCCAUUUAUGGUGCUCUGUAUUCUGGCAUUAUGCAGCAGCCUCCCAGAAGCUCUCUUCUGCUUCAAAACCUGGGAUCUCUGGCAUUACCCUAUUGGGAUGGACCGCUGG,0.438

# Set 3
# Target: Histone acetyltransferase KAT6A, winged helix 2, GST fusion (KAT6A, Homo sapiens, UniProt Q92794, residues 85-181)
# Method: protein binding microarray
# Molecule type: double-stranded DNA, one strand shown
# Matrix: in vitro
# Concentration: not given
# Notes: 8-mer, flanks averaged, mean of 2 arrays, mostly near background
# Reference: not given
# Reading: higher = stronger binding
# Target sequence (chain): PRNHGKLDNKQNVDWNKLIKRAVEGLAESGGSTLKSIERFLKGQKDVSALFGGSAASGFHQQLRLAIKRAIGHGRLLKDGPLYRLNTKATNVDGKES
Strand,E-score
CGGACCAA,0.151
GACCCCCC,0.0255
AGGTTACA,-0.152
ATTAGACC,-0.221
CTGGACCA,-0.0544
TCCGATCA,0.0901
GGCCGACC,-0.0008
ATCTCACC,0.0741
CTGCTGCA,0.109
CTTCATCA,-0.0282
CCGCCTCC,0.104
ATGGCGTA,-0.0888
CTGGTCAC,0.0276
AGGGACCT,0.0285
ACATGTCT,-0.0924
AAGGTGAC,-0.137
TACAGCTA,-0.229
CGCTAACA,-0.124
ACGAAAAC,0.106
AATGCAGT,-0.0371

# Set 4
# Target: Ras GTPase-activating protein-binding protein 1, RRM domain (G3BP1, Homo sapiens, UniProt Q13283)
# UniProt Q13283, sequence (whole entry, looked up): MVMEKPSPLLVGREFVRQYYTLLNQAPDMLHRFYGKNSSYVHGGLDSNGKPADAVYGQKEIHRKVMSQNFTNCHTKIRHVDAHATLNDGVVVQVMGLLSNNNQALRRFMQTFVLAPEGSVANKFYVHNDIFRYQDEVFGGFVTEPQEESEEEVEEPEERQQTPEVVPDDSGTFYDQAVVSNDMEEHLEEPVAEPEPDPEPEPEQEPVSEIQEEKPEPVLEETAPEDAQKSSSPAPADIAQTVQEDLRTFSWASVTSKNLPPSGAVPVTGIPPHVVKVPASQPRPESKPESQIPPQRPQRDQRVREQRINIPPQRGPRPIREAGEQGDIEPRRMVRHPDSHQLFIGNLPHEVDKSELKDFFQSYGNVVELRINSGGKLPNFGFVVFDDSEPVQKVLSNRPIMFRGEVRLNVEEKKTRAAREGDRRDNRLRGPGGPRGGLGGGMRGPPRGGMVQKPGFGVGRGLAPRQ
# Method: RNA Bind-n-Seq
# Molecule type: RNA
# Matrix: in vitro
# Concentration: 1 µM
# Notes: whole 134-nt RNA, ends assumed
# Added: 150 mM KCl
# Reference: input library
# Reading: higher = stronger binding
# Shared flanks, not repeated: GGGAGUUCUACAGUCCGACGAUC … UGGAAUUCUCGGGUGUCAAGG
Strand,log2 enrichment
GUCCUGUGCUACACAUCGUAUGUACCGAAUCGGGUUUGGGAAAAAGGGAAAAAAAGGGAAAGUAUUAUGUUACGCCGUUCGGAUCUGCAC,0.205
GUCCUGUGCUACACAUCGUAUGUACCGAAUCGGUUUUUGGGUUUUUGGGUUUUUGGGGAAAGUAUUAUGUUACGCCGUUCGGAUCUGCAC,-0.138
AAGUCCUGUGCUACACAUCGUAUGUACCGAAUCGGGGCCCCGGGCCCCGGCCCCGGGAAAGUAUUAUGUUACGCCGUUCGGAUCUGCACU,-0.562
CCUGUGCUACACAUCGUAUGUACCGAAUCGGGGAAAAAAAGGGGAGGGGAAAAAAAGGGGAAAGUAUUAUGUUACGCCGUUCGGAUCUGC,0.286
CAAGUCCUGUGCUACACAUCGUAUGUACCGAAUCGGAAAGGGGAAAGGGAAAGGGGAAAGUAUUAUGUUACGCCGUUCGGAUCUGCACUU,0.115
CAAGUCCUGUGCUACACAUCGUAUGUACCGAAUCGGAAAAGGAAAAGGGAAAAGGGAAAGUAUUAUGUUACGCCGUUCGGAUCUGCACUU,-0.227
ACCAUGCAGGUGGGCAUCUUUGGGAAGUGGGGCAAGGGGGGGAUAGGGAGGGGGGUAACACUUUAAAAACAGGUGGUCCCAGGUCGUUUC,-0.472
CACAGACAACACGCACCCACACAGACACAGAGGGAAGGGGUUGGGAUGGGGACAGGGUGCACAGCAGGGCGGGGUAGGACCCCAGCCAAA,-0.126
UGGGAGGUGGAUUUUGUAUAUUUUUUUAGCUCAUUUCCAGGGGUGGGAAUUUUUUUUUAAUAUGUGUCAUGAAUAAAGUUGUUUUUGAAA,2.03
ACCAUGCAGGUGGGCAUCUUUGGGAAGUGGGGCAAGGGGGGGAUAGGGAGGGUGGUAACACUUUGGGAACAGGUGGUCCCAGGUCGUUUC,0.861
AGUCCUGUGCUACACAUCGUAUGUACCGAAUCGGGGUGGGGUUUGGGGUUUUUGGGGAAAGUAUUAUGUUACGCCGUUCGGAUCUGCACU,1.07
UCCUGUGCUACACAUCGUAUGUACCGAAUCAAAUUUUUUUAAAUUUUUUUAAACCCAAAAAAGUAUUAUGUUACGCCGUUCGGAUCUGCA,-1.22
UCCUCAAGUCCUGUGCUACACAUCGUAUGUACCGAAUCGGUUUGGAGGUGGAAAGUAUUAUGUUACGCCGUUCGGAUCUGCACUUCCAGC,-0.146
UGGCCGGUGGCCGUGAGAACACGCUGUGUGGCUGAAAAGUGAAGGCAAGAGCUGAUUUGGCCUCUGUGCUCCCCUCCGCAAGGGGAUCGU,-0.363

# Set 5
# Target: RING finger protein unkempt homolog, zinc fingers 1-6, GST-SBP tag (UNK, Homo sapiens, UniProt Q9C0B0, residues 30-357)
# UniProt Q9C0B0, sequence (30-357, looked up): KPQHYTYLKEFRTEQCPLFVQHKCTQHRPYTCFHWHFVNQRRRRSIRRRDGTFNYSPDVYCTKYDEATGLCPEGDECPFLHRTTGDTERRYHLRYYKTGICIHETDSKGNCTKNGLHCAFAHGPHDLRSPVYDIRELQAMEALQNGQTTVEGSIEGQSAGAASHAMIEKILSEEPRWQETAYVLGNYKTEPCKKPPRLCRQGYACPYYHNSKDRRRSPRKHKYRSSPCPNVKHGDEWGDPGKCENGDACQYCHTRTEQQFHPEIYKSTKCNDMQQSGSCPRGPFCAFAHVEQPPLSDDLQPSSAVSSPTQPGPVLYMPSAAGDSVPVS
# Method: RNA Bind-n-Seq
# Molecule type: RNA
# Matrix: in vitro
# Concentration: not given
# Notes: RNA with constant flanks, human-mouse chimeric sites, ends assumed
# Reference: input RNA pool
# Reading: higher = stronger binding
# Shared flanks, not repeated: GGGAGUUCUACAGUCCGACGAUC … CAACAGAGGAUUGAGCAUCA
Strand,bound/input enrichment
AUGGAACAUUUCGAUGCGUCACUCAGUACCUAUUUCAAGGCCUUCCUGGGCCCCCGAGAUACUAGAGUCAAAGGAUGGUUCCUCCUGGACAAUUACAUACCCACAUUUGUCUGUUCUGUU,0.0825 ratio
AUAAAAGCUAUGUUGAGUGGUCCAGGUCAGUUUGCUGAGAAUGAAACCAACGAGGUCAAUUUUAGAGAGAUCCCCUCACAUGUGCUAUCAAAAGUGUGCAUGUAUUUUACCUACAAGGUC,0.337 ratio
UCCUUGGACCCCAGUCAUAUAGGUGACCUGCAAAAAGCAGACACCAGUAGUCAAGGUGCUUUAGUGUUUCUCUCAAAGGACUACGAGAUAGAAAAUCAAAAUCCCCUGGCCUCUCCUACG,1.43 ratio
UUCCCAACCUCCCGCCUCACCCCACCCCCGCUUUUUGGAAAGUUUUUGGCGUUUCUUUUCCUUCCCCAUACAAAGUGGUUUUUACCACCCCCGCAAGGGUCUAUCGAAGGGCUUGACGGA,0.45 ratio
AACGUGGAACUAAGUUCCUUGGCCCGGCUUCCCAGCUUGAAUAAACUCCGGAAGUUGGAACUUAGUGACAAUAUAAUUUCUGGAGGCUUGGAAGUCCUGGCAGAGAAAUGUCCAAAUCUU,0.244 ratio
GGACAUCUGUCAAAUUGUUAUGUUCCUGUGAAACAAGUGAACACUCUUCAUAUACUAAUCUGCUUGUACAUCUGUAUGAUAGAGAAACAGAAAUCUAUUAAUCCAAGCAAUGUGUCACUU,0.192 ratio
CUUAAUGUUAAUAUUUUUGAAUAAAUGUAAAACCAUGUUUGCUUUCUGGUACAACACGCAUUAAUAAAAGGUUAAGUUUUGUUUUCCACUGAAGUACUAUUUAACAUCUCAGAAAAAAAC,0.198 ratio
UUACUUUUGACUCCCUGGGUCAAGUUCCUGUGGGAAUCAUACAGGCAGUGUUUGGACCUUCUUCGAAACAAUUCUAGAGUAGAGCGCCUUUACCAUGAUAUUGCCCAACAAGCUUUCAAA,0.143 ratio

# Set 6
# Target: CCNB3, cyclin fold, Cln2 fusion (human)
# Method: yeast growth competition, sequencing
# Matrix: yeast
# Notes: weak parent motif
# Reference: not given
# Reading: higher = stronger binding
# Parent: E2F8 docking peptide (human); FVPQRKLEVSTED; partner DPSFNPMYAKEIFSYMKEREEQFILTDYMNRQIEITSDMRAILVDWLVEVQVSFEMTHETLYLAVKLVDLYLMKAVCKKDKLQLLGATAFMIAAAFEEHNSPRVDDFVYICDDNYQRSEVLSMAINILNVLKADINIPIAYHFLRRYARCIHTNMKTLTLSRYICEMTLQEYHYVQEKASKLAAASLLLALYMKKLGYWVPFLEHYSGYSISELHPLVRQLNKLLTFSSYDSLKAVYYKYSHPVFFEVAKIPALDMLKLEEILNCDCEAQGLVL
Variant,normalised enrichment score
D13A,0.0712
V2A,0.041
R5K,-0.101
E12A,0.0495
F1A,0.322
T11A,0.0986
R5K V9F,0.128
R5A,0.136

# Excerpt of the above (set 1):
Strand,7-mer Z-score
GGGAGUC,-0.0935
CAUACCC,-0.425
UAAGUCG,-0.142
CCGCACC,-0.374
GAGUACC,-0.153
ACACUCU,-0.151
GCAGUGU,0.0424
CUAGUGA,-0.238
AUGCACC,-0.0663
